Measured values from different studies.
Numbered parts are unrelated; each lists some results of a single study. Changes are numbered by the printed parent chain.

Study 1
Target: CCND1, cyclin fold, Cln2 fusion (human)
Technique: yeast growth competition, sequencing
Sample: yeast
Notes: weak parent motif
Baseline: not given
Direction: higher = stronger binding
Measurement: normalised enrichment score
Parent: PKMYT1 docking peptide (human); SFEPRNLLSLFED
SFEPRNLPSLFED [L8P]: 0.304
SFEPWNLLSLFED [R5W]: 1.49
SVEPRNLLSLFED [F2V]: 0.341
SFEPRILLSLFED [N6I]: 1.84
SFEPTNLLSLFED [R5T]: 1.01
SWEPRNLLSLFED [F2W]: 0.6
SFEPRNLLSTFED [L10T]: 0.662
SFEPRNGLSLFED [L7G]: 1.17
SFCPRNLLSLFED [E3C]: 1.08
SFEPRNLESLFED [L8E]: -2.52
SFYPRNLLSLFED [E3Y]: 0.656
SFEPRNLLKLFED [S9K]: 1.32
SFEPRNLLSAFED [L10A]: 1.44
SAEPRNLLSLFED [F2A]: 0.576
SFEPRNLLSLFEK [D13K]: 1.01

Study 2
Target: RING finger protein unkempt homolog, zinc fingers 1-6, SBP tag (UNK, Homo sapiens, UniProt Q9C0B0, residues 30-357)
UniProt Q9C0B0, sequence (30-357, looked up): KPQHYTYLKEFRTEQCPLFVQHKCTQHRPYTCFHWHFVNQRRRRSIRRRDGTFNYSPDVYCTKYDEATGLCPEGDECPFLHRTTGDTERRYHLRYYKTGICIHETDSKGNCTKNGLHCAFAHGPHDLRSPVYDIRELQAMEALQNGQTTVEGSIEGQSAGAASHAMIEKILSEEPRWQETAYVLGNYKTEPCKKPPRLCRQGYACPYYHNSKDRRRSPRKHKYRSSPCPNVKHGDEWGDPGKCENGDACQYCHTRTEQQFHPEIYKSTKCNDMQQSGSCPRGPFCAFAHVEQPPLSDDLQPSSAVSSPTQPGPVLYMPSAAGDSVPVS
Technique: RNA Bind-n-Seq
Molecule type: RNA
Sample: in vitro
Tested at: 100 nM
Notes: RNA with constant flanks, vertebrate orthologous sites, ends assumed
Baseline: input RNA pool
Direction: higher = stronger binding
Measurement: bound/input enrichment
Constant ends, left off below: GGGAGUUCUACAGUCCGACGAUC … CAACAGAGGAUUGAGCAUCA
GUUGCGAUCCCUUCAAUAUACACAGAAAACUAUCAAAGAAAAACUUGAGAGCAAUUGACUUGGAUGAUGCAACUUUUCUAAGUGCCAAGUUUGGAAGGCAGUUUGUACCUGGUUGGAAGC: 0.341 ratio
GGUUGAUGUUCUGAAGAACCACUUGGUAAAAGAAGGUCGAGUAGAUGAAGAAAUUGCACUUAGAAUUAUCAAUGAGGGUGCUGCCAUCCUUCGGAGAGAGAAAACCAUGAUAGAAGUAGA: 0.467 ratio
CAAUCUUACAUUAAACUGGUAUUUUCAAACAAUAGGAAAUUCUUAUUUUUUUUUACAGUUUAGUGUAUCUGGUUUCUACAUGGAAGACUAAACUCAUGCUUAUUGCUAAAUGUGGUCUUU: 0.241 ratio
UGCUGUUAAUGCACUGUAUACCAGGCAUCGUCUGAACUUAGUGUAAUCUAGGAGAUUUUAUAGUUUUAUUUUAAUGAAGUAUGGUUGAAGCAAAGCUGUUAGGAAUAUGUAGUCUUUUAC: 2.82 ratio
AAAUUCCCCCGUUGUCACUGAGAACCACCAAAUCUGACUUUUACAUUUGGUCUCAGAAUUUAGGUUCCUGCCCUGUUGGUUUUUUUUUUUUUUUUUCAAACAGUUUUCAAAAGUUCUUAA: 1.17 ratio
GUCCCUCAGUGACAGUAUGCCAUCGGUAGCGGAUUCCCACUCUAGUCAUUUCUCUGAAUUUAGCUGUUCUGACCUAGAAAGCAUGAAAACUUCUUGUAGUCAUGGUUCCACUGAUUAUCA: 1.03 ratio
UUUUUGUUAACACGUGACACUGUGUAUAGAGGAUCUUCUGAGGGAGGAGGAAGGAUGCUCUAGCAGUGGUGCCUGGGUUCCUGGCCUCCAGUGCCCCACCACCCUCACCACCCCACCUGG: 0.328 ratio
GAGCUAAAGGAGUUAGUGUCUUUAUUUUUGUAUCAAAGAUAAAGAUUAUUUUGAAAUUAUUAAGAUUUUUACACAACUCUGAAAUCUGUUGUUUUUGUAAACAAAUUGUUUGAUCGGGGG: 0.166 ratio
GGGCAGCAGGCGGGGUCAUUCCAUGCCCUAGCCUUGCCUCCCCUUCCUGCCACCGGCUCCUAGUUAUUUUUUUUUUAACCACCAUGUGAUUAAGGUCGGCGCUGCCUCCUCCCGACCCGC: 1.54 ratio
AAAUUUAUUUCAUGCCCUGGACUCCCUAUCGUACCGAUACUUUAAUAGAAUAUGCUUCUAUAGAAGAUUUCCAAAACAGUCGCCAAACAACAACAUACAAACUUCCAAAUCGAGUAGAUG: 1.07 ratio
AAGAGCUGCGUAGAGUAGGGUCCUGUUCUCUUUAGAGCGUUCUUUCUCUGUUCUGUCUUCCUCAGGGUGGGGUAGGGGUUGUGGUGCACCCCAGCCCUGAGGCGUGAGUGUUUGUGGUUC: 0.63 ratio

Study 3
Target: UBE2O UBC core domain (UniProt Q9C0C9)
UniProt Q9C0C9, sequence (whole entry, looked up): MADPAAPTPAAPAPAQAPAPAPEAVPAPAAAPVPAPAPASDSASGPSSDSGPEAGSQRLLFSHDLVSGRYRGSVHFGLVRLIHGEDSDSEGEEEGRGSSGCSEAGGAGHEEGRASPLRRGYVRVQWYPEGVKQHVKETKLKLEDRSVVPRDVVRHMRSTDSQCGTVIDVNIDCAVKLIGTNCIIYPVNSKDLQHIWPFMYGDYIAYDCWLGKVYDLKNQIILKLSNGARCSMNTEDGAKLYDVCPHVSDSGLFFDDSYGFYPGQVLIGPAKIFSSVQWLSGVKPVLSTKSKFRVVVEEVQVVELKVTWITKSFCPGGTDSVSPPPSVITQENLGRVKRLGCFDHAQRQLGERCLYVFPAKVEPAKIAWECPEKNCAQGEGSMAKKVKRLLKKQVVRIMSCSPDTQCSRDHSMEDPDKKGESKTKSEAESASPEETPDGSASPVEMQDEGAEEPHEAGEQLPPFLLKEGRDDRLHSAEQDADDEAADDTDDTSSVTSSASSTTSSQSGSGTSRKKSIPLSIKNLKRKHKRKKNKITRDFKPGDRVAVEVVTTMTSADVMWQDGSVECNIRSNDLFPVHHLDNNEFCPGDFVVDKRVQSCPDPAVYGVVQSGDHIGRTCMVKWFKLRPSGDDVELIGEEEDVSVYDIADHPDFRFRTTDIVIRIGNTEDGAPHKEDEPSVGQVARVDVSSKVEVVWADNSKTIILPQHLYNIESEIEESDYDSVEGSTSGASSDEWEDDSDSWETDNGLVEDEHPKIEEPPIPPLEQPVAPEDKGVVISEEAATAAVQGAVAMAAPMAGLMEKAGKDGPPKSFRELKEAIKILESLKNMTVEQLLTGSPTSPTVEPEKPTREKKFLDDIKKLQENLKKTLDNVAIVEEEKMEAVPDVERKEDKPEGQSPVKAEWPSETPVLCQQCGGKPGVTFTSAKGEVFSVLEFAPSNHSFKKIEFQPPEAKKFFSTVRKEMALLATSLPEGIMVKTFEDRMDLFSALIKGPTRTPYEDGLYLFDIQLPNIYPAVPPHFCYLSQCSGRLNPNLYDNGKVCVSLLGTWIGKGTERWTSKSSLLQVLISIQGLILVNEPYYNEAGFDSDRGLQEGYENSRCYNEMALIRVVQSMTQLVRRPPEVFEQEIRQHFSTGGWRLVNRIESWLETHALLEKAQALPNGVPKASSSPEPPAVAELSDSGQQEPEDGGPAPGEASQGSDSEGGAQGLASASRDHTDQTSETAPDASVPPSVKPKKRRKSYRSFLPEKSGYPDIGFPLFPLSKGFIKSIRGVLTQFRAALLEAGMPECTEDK
Technique: yeast two-hybrid
Sample: yeast
Notes: mostly zero background
Baseline: not given
Direction: higher = stronger interaction
Measurement: lacZ reporter activity
B1: TRIM26 RING domain (UniProt Q12899); chain PLRSLEEEVTCSICLDYLRDPVTIDCGHVFCRSCTTDVRPISGSRPVCPLCKKPFKKENIRP
B2: TRIM54 RING domain (UniProt Q9BYV2); chain SMDNLEKQLICPICLEMFSKPVVILPCQHNLCRKCANDVFQASNPLWQSRGSTTVSSGGRFRCPSCRHEVVLDRHGV
B3: TRIM60 RING domain (UniProt Q495X7); chain ALVNLQEESSCPICLEYLKDPVTINCGHNFCRSCLSVSWKDLDDTFPCPVCRFCFPYKSFRR
B4: TRIM22 RING domain (UniProt Q8IYM9); chain VKVDIEKEVTCPICLELLTEPLSLDCGHSFCQACITAKIKESVIISRGESSCPVCQTRFQPGNLRP
B5: RNF183 RING domain (UniProt Q96D59); chain EQQGRELEAECPVCWNPFNNTFHTPKMLDCCHSFCVECLAHLSLVTPARRRLLCPLCRQPTVLASGQP
B6: TRIM31 RING domain (UniProt Q9BZY9); chain FVNKLQEEVICPICLDILQKPVTIDCGHNFCLKCITQIGETSCGFFKCPLCKTSVRKNAIRF
B7: ANAPC11 RING domain (UniProt Q9NYG5); chain GICRMAFNGCCPDCKVPGDDCPLVWGQCSHCFHMHCILKWLHAQQVQQHCPMCRQEWKFKE
B8: MKRN2 RING domain (UniProt Q9H000); chain FAFQASQDKVCSICMEVILEKASASERRFGILSNCNHTYCLSCIRQWRCAKQFENPIIKSCPECRVISEFVIPSV
B9: MEX3B RING domain (UniProt Q6ZN04); chain SGLRRKGSRDCSVCFESEVIAALVPCGHNLFCMECANRICEKSEPECPVCHTAVTQAIRIF
B10: RNF152 RING domain (UniProt Q8N8N0); chain ETLSQDSLLECQICFNYYSPRRRPKLLDCKHTCCSVCLQQMRTSQKDVRCPWCRGVTKLPPGFS
B1 (TRIM26 RING domain): 0
AEADPLGRFTCPVCLEVYEKPVQVPCGHVFCSACLQECLKPKKPVCGVCRSALAPGVRAV (RNF114 RING domain (UniProt Q9Y508)): 0
B2 (TRIM54 RING domain): 0
B3 (TRIM60 RING domain): 0
B4 (TRIM22 RING domain): 0
YPEEVDDDLICHICLQALLDPLDTPCGHTYCTLCLTNFLVEKDFCPMDRKPLVLQHCKK (LNX1 RING domain (UniProt Q8TBB1)): 0
B5 (RNF183 RING domain): 0
B6 (TRIM31 RING domain): 0
B7 (ANAPC11 RING domain): 0
B8 (MKRN2 RING domain): 0
B9 (MEX3B RING domain): 0
LGTKLEAKYLCSACRNVLRRPFQAQCGHRYCSFCLASILSSGPQNCAACVHEGIYEEGIS (TRAF2 RING domain (UniProt Q12933)): 0
YCEMGSTFQLCKICAENDKDVKIEPCGHLMCTSCLTAWQESDGQGCPFCRCEIKGTEPII (CBLB RING domain (UniProt Q13191)): 0
B10 (RNF152 RING domain): 0

Study 4
Target: Histone acetyltransferase KAT6A, winged helix 1, GST fusion (KAT6A, Homo sapiens, UniProt Q92794, residues 1-85)
Technique: protein binding microarray
Molecule type: double-stranded DNA, one strand shown
Sample: in vitro
Tested at: not given
Notes: 8-mer, flanks averaged, mean of 2 arrays, mostly near background
Baseline: not given
Direction: higher = stronger binding
Measurement: E-score
Target sequence (chain): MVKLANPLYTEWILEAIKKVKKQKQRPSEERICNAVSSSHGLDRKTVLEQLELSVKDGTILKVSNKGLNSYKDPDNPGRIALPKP
CGGCTGAC: 0.285
CCACAGAG: -0.168
GGCTGACC: 0.112
AACCGACG: 0.318
GCGGTAGC: 0.247
AGATGTAC: -0.204
AGCCAACG: 0.0514
CGCACCAG: 0.174
AACAAGAA: -0.111
ATGGAACA: -0.289
CGACTGCG: 0.255
ACGATCAC: -0.0639
CGACGACG: 0.261
CTTCCCAA: -0.274
TCTGTTAA: -0.0775
TCGGTGCA: 0.0746

Study 5
Target: ABI1, truncated, D143A, DHFR fusion (Arabidopsis thaliana)
Technique: DHFR PCA, deep sequencing
Sample: yeast
Notes: methotrexate growth selection, single substitutions
With: (+)-ABA 200 µM
Baseline: wild-type fitted maximum
Direction: higher = stronger binding
Measurement: relative binding score
Parent: PYL1, truncated, DHFR fusion (Arabidopsis thaliana); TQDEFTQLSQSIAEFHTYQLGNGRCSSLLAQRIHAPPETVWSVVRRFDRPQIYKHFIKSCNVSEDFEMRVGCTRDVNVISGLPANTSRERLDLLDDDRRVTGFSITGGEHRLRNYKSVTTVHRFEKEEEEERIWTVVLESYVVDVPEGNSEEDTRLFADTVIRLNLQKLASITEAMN; partner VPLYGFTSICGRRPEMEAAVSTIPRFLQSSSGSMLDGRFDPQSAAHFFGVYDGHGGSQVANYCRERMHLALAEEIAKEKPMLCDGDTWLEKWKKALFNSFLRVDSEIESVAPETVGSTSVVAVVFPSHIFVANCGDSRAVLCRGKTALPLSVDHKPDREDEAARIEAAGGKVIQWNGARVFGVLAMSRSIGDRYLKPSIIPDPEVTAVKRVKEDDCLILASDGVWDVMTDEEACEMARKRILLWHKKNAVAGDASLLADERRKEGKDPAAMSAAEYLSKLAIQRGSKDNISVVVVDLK
T154H: -15.5%
T120K: 0.164%
I52T: 102%
G148W: 57.5%
N77F: 106%
T101M: 111%
L94K: 20.1%
T39W: 86.6%
L166Y: -0.651%
G81Q: 27.2%
L166A: 5.28%
Q167T: 96.3%
T120L: 0.981%
L8S: 61.6%
V100R: 74.5%
L94A: 34.8%
S104G: 34.4%
E67P: 99.9%
L28T: 90.5%
M176Y: 92%
M68Q: 95.7%
E128N: 108%
R24W: 68.2%
Y115K: -14.6%

Repeated from above (study 1):
SVEPRNLLSLFED [F2V]: 0.341
SFEPRILLSLFED [N6I]: 1.84
SFEPTNLLSLFED [R5T]: 1.01
SWEPRNLLSLFED [F2W]: 0.6
SFEPRNLLSTFED [L10T]: 0.662
SFEPRNGLSLFED [L7G]: 1.17
SFCPRNLLSLFED [E3C]: 1.08
SFEPRNLESLFED [L8E]: -2.52
SFYPRNLLSLFED [E3Y]: 0.656
SFEPRNLLKLFED [S9K]: 1.32
SFEPRNLLSAFED [L10A]: 1.44
SAEPRNLLSLFED [F2A]: 0.576
SFEPRNLLSLFEK [D13K]: 1.01
